Assay results collected from several papers.
A part holds a random share of what one study measured. Substitutions count along the parent as printed.

Series 1
Target: CCNA2, cyclin fold, Cln2 fusion (human)
Method: yeast growth competition, sequencing
Sample: yeast
Notes: strong parent motif
Baseline: not given
Reading: higher = stronger binding
Parent: E2F1 docking peptide (human); PPVKRRLDFETDH; partner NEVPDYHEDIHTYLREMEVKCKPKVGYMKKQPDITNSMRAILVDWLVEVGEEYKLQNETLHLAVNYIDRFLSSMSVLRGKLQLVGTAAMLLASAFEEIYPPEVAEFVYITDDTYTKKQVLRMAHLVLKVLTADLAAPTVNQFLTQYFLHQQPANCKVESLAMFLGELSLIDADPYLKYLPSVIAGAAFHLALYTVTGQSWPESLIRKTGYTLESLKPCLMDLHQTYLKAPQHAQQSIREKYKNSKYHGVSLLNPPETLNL
Change	normalised enrichment score
PRVKRRLDFETDH [P2R]	6.67
PPVKRRLDFEIDH [T11I]	5.85
PPVKRRLYFETDH [D8Y]	6.23
PPRKRRLDFETDH [V3R]	4.94

Series 2
Target: Prothrombin, mature alpha-thrombin (F2, Homo sapiens, UniProt P00734)
Method: aptamer microarray, sandwich
Molecule type: DNA with 2'F-ANA
Sample: in vitro
Concentration: 200 nM
Notes: whole 15-mer aptamer, many near background
Added: Cy3 exosite-II aptamer, 400 nM
Reading: higher = stronger binding
Sequence: GGTTGGTGTGGTTGG
Modification	mean fluorescence intensity
2'F-ANA at 3 4 5 6 7 13	81.7 a.u.
2'F-ANA at 5 11 12 13 15	97.9 a.u.
2'F-ANA at 2 3 5 7 8 10 11 12 13 15	57.7 a.u.
2'F-ANA at 1 6 7 8 9 11 15	154 a.u.
2'F-ANA at 6 9 13	317 a.u.
2'F-ANA at 4 5 8 11 14	46.1 a.u.

Series 3
Target: Histone acetyltransferase KAT6A, winged helix 1, GST fusion (KAT6A, Homo sapiens, UniProt Q92794, residues 1-85)
Method: protein binding microarray
Molecule type: double-stranded DNA, one strand shown
Sample: in vitro
Concentration: not given
Notes: 8-mer, flanks averaged, mean of 2 arrays, mostly near background
Baseline: not given
Reading: higher = stronger binding
Construct (chain): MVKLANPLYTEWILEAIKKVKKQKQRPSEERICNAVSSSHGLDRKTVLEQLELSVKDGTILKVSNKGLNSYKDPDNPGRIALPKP
Sequence	E-score
ACAACAGG	-0.213
AACTCGGA	-0.0317
CCCCAGCG	0.0825
CGCGCACA	0.404

Further values, each from its own experiment
Substance	target	assay	test system	setting	how to read	quantity	result
PhoQ, residues 284 288 289 292 302 303 SLANKL	PhoP, residues 12 14 15 18 19 SGWQI (Escherichia coli, UniProt P23836)	Sort-seq, measured: YFP reporter	E. coli	PhoQ-PhoP variant library, added: 10 µM Mg2+	baseline: high Mg2+ state, higher = stronger signaling	fold induction	0.91
